Measurements collected from several papers.
Numbered parts are unrelated; each lists some results of a single study. Changes are numbered by the printed parent chain.
Chain of UniProt Q5VT25 (whole entry, looked up): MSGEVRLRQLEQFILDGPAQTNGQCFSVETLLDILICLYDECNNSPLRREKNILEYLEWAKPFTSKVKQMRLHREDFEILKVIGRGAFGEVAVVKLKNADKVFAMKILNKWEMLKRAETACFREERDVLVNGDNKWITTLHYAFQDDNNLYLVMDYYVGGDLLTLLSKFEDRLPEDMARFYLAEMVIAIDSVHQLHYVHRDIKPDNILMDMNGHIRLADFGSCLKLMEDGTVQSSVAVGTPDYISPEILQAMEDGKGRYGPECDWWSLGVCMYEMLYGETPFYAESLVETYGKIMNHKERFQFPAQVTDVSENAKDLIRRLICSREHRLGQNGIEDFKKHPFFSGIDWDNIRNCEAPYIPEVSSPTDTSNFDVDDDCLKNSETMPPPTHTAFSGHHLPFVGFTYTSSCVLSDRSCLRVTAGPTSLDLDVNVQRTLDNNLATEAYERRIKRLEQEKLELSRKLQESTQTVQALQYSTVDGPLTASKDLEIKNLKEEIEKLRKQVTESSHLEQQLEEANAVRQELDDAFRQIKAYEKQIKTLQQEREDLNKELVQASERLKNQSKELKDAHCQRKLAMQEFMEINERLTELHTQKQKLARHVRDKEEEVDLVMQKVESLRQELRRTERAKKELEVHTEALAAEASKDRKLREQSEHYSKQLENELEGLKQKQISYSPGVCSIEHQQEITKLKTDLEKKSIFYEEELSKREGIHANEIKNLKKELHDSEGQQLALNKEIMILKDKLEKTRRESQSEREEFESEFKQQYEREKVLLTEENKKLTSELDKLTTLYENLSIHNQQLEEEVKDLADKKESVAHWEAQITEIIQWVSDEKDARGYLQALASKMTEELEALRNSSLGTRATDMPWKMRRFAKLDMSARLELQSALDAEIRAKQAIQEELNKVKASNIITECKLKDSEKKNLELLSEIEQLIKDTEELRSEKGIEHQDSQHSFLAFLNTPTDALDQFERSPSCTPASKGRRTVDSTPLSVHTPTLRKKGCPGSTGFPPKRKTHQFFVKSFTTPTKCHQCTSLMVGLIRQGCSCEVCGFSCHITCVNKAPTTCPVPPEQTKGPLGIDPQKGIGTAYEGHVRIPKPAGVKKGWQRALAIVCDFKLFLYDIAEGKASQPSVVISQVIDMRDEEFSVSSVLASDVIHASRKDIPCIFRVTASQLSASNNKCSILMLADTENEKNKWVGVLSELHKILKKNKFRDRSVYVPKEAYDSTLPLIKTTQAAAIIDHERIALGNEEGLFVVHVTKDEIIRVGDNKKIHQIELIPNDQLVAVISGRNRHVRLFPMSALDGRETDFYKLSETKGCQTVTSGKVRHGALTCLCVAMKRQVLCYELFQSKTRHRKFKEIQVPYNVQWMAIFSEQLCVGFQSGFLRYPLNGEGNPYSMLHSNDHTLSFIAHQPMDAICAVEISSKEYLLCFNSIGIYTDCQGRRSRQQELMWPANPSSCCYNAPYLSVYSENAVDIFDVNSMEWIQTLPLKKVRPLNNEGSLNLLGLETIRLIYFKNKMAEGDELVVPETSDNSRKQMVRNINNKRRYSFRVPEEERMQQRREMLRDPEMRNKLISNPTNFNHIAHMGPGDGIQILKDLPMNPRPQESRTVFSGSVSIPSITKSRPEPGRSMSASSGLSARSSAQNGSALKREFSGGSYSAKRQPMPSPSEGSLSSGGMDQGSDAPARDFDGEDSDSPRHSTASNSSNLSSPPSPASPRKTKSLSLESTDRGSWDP
Chain of UniProt P42336 (whole entry, unmodified, looked up): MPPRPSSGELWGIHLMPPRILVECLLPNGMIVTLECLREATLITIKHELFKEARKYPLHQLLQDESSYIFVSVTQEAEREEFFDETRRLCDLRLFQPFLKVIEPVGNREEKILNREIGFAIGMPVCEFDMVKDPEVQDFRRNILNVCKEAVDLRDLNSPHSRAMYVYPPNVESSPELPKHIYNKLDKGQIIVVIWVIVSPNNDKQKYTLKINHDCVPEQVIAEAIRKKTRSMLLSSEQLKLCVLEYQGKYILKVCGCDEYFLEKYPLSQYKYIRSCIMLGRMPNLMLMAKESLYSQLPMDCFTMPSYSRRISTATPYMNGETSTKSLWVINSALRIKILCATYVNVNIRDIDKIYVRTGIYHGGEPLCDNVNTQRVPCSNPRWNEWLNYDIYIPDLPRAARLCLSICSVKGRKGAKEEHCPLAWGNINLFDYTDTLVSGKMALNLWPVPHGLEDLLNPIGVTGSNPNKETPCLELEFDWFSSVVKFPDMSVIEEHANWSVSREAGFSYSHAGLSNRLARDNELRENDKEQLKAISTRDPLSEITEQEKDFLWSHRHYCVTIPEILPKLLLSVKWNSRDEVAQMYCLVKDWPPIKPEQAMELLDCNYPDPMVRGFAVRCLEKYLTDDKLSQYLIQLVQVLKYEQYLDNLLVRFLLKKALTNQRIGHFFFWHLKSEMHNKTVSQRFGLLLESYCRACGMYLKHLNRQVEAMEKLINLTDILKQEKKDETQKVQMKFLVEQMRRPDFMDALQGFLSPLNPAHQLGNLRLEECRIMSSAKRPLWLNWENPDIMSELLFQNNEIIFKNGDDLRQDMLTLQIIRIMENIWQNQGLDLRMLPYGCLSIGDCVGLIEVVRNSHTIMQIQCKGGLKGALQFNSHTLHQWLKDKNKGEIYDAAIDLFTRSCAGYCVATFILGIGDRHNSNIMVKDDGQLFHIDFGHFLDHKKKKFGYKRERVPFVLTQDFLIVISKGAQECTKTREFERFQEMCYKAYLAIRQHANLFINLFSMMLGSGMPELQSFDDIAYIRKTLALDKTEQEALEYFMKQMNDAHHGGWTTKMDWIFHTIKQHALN
Chain of UniProt P53779 (whole entry, looked up): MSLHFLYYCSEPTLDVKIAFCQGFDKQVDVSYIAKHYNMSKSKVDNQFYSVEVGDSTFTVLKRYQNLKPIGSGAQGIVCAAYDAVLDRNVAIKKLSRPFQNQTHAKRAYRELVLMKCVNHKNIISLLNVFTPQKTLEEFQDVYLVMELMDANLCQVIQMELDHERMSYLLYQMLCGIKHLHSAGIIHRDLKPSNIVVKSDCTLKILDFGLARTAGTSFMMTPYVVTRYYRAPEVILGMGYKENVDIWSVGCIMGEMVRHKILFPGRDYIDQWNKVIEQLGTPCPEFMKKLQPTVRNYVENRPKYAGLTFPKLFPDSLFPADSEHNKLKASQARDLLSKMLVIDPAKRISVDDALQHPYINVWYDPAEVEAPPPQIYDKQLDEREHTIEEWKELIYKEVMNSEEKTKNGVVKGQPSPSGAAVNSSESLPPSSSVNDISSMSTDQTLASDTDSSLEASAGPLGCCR
Chain of UniProt Q9UK32 (whole entry, looked up): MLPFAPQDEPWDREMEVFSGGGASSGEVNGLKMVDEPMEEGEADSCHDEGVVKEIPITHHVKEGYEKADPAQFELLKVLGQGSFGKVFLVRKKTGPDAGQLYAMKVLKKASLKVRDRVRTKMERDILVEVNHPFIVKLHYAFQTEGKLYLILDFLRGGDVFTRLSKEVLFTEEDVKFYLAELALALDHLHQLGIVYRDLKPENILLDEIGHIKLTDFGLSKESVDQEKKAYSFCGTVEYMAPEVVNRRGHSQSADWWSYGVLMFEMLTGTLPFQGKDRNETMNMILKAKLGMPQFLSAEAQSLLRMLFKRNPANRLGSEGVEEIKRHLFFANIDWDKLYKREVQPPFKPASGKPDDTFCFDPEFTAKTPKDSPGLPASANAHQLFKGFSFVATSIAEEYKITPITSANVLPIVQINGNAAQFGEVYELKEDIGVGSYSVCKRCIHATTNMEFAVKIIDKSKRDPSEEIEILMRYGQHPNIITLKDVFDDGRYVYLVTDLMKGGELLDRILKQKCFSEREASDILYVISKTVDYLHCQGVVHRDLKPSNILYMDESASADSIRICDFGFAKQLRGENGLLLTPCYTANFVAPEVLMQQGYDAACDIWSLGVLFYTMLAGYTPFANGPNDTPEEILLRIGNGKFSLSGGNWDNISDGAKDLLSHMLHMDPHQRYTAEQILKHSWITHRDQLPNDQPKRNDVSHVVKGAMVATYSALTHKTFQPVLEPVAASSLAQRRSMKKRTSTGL

Set 1
Target: Serine/threonine-protein kinase ULK1 (ULK1, Homo sapiens, UniProt O75385)
Chain of UniProt O75385 (whole entry, looked up): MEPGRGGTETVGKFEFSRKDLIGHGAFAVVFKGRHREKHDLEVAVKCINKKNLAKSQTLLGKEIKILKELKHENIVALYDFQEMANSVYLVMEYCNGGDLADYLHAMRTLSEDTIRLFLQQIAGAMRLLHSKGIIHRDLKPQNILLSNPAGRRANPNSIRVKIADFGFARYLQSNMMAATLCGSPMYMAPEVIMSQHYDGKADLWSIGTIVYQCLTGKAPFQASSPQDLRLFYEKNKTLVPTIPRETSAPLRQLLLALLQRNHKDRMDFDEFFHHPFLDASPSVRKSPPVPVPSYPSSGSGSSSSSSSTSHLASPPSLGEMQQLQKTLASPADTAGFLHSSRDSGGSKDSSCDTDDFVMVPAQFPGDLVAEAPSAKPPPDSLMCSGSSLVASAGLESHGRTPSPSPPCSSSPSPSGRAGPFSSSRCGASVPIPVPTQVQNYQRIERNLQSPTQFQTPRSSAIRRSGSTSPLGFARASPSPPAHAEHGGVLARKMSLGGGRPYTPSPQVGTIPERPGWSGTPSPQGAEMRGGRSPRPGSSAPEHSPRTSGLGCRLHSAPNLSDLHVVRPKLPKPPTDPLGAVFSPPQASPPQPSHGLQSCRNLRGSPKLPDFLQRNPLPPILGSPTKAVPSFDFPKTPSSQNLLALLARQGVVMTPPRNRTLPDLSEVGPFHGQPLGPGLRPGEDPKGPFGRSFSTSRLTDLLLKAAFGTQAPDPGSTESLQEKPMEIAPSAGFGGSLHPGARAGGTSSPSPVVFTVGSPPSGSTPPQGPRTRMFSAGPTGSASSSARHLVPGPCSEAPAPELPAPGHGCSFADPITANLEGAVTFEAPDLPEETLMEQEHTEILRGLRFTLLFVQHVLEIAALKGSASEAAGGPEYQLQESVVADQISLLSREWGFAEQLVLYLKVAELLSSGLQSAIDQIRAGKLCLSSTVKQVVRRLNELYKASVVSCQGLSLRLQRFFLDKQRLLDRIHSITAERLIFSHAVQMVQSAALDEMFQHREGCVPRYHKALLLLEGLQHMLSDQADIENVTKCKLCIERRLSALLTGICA
Effect on: enzyme activity
Action: inhibitor
Concentration: 0.5 µM
Reference: control
| Structure (SMILES) | remaining activity [%] |
| --- | --- |
| CN(C)c1ccc(C=C2C(=O)Nc3ccccc32)cc1 | 91.9 |
| OCC(O)CCON=C1C(c2c(O)[nH]c3ccccc23)=Nc2ccccc21 (stereo not shown) | 98.3 |
| O=C(O)c1ccc2c3c1cccc3c(=O)n1c3ccccc3nc21 | 83.5 |
| O=C(CCCc1ccc(-c2ccccc2F)cc1)Nc1ccc(O)cc1 | 106 |
| N#CC(C#N)=C(N)/C(C#N)=C/c1ccc(O)cc1 | 89.3 |
| O=C(Nc1cccc(Nc2cc(Nc3cccc(C(F)(F)F)c3)ncn2)c1)C1CC1 | 100 |
| Nc1[nH]nc2nc3ccccc3nc12 | 106 |
| O=c1c2ccccc2[nH]c(=S)n1CCN1CCC(=C(c2ccc(F)cc2)c2ccc(F)cc2)CC1 | 98.1 |
| O=C1NC(=O)C(c2cn(CCCn3ccnc3)c3ccccc23)=C1Nc1ccccc1 | 90.1 |
| CC(C)[C@H](CO)Nc1nc(Nc2cc(N)cc(Cl)c2)c2ncn(C(C)C)c2n1 | 41.5 |
| COc1cc2ncnc(Nc3ccc(F)c(Cl)c3)c2cc1OCCCN1CCOCC1 | 93 |
| Nc1ncnc2n[nH]c(Nc3ccc(F)cc3)c12 | 95.6 |
| O=C1NC(=O)C(c2cn(CCCO)c3ncccc23)=C1c1cnccn1 | 102 |
| Cc1ccc(Nc2nccc(N(C)c3ccc4c(C)n(C)nc4c3)n2)cc1S(N)(=O)=O | 97.3 |
| Cc1cccc(-c2[nH]c(C(C)(C)C)nc2-c2ccc3c(c2)OCO3)n1 | 82.7 |

Set 2
Target: RNA binding protein fox-1 homolog 2, RRM domain, GST-SBP tag (RBFOX2, Homo sapiens, UniProt O43251-10, residues 100-194)
Technique: RNA Bind-n-Seq
Form: RNA
Medium: in vitro
Concentration: 365 nM
Setting: natural RNA segment, single round, ends assumed
Reference: no-protein control
Direction: higher = stronger binding
All sequences stand within: GGGAGUUCUACAGUCCGACGAUC … UGGAAUUCUCGGGUGCCAA
Residues (chain): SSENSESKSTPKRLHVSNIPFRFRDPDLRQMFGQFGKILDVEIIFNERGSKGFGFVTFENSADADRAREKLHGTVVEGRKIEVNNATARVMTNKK
| Sequence | RBNS enrichment (R) |
| --- | --- |
| AGGUAACAGUGAAAGCUUUUAAGCCUCUGAGCCUCGAGACUGGGGAGAUUGAGUUUAUACCCCCUAGUCUCUCACAUUCAAAUCUAGUAGCCUGUAACCACUUUUAAAUG | 0.462 |
| UGUCAGAUGCUUGCAUCCAUGUGGACCACGAUGGGCCUCUAAAAAUUGGUGGGCAGGGGGUUUGCUUAUGAGUUUUCUCUGGAAACCGAUUUUACUCCUGGAUGUAUUGA | 0.822 |
| UGAAAAAAUGUUCCCUGGCUAGUGUACUCCAUUCUCUUUCCUAGUGGCUCGGGCCAGACUUCAUCCAUUUAGAGAGAAGCAGUACUUCCUGUUUGUGUGCCCAUCUUAAA | 0.456 |
| UCUUCCAUGUUUGAGGGAAAGUCUUGCACUAUUGCAUAUAUUUUGGGGACACAGAUUUUCAUAGUUUCCAUUUUUGGGGGGCUUAAGGAUUUUUUUUUUUUCUGUUUGAA | 2.69 |
| AGGGGCUUUUAGUCGUCUCAGUAUCUUUUUUGCAUUCAGGUAUUAUAGCGUUUCCAACAAAUUGAGAAAUUACUUAUUUGGUGUAAAAUGACGAGAGAGCUUUAGAAUUU | 0.746 |
| AUGAGCCCUGAGGAACACAGGGAGGGCCUUGAAGAACAAUCUACAGAUGCACAAUCCUUUCCAACCUACAACUUCCUCAAAAUCCAGAGCCAGCCAAAGGAUCAAUGAAG | 0.651 |
| UCCCCUCUACUUGCGAGUUAUGGAAUUUCUAUUCCAUAACUGAAGUCUUUAUGAUAACCUAAUUUUUAAAAAUGAAUUUGACUAACUUAAGUGCAAAACAUGUAAAUUUG | 0.789 |
| UCCAGGCCAGCACUUGGUCAUUUGAGAACUGUCUUCUGUGUUCUCUGUGACUUAGGCUAGCCCUAGGGUACUGAGGUGGCAGCUGCAUGGCUGUGGCCUGAAGUUGCACU | 0.225 |

Set 3
SMILES: O=C(NCCCC1CCCCC1)c1ccc(CNC(=O)c2cnn(-c3ccccc3)c2C(F)(F)F)cc1
Effect on: cell-free assay
Technique: competition with immobilised ligand
Concentration: 0.1 µM
| target | remaining binding |
| --- | --- |
| FLT3 (Homo sapiens, UniProt P36888, D835H) | 100% |
| MINK1 (Homo sapiens, UniProt Q8N4C8) | 97% |
| EGFR (Homo sapiens, UniProt P00533, del747-750/T751S) | 100% |
| MAPK10 (Homo sapiens, UniProt P53779) | 100% |
| MAPK13 (Homo sapiens, UniProt O15264) | 100% |
| TAOK2 (Homo sapiens, UniProt Q9UL54) | 89% |
| PIK3CA (Homo sapiens, UniProt P42336, H1047Y) | 100% |
| MAP4K3 (Homo sapiens, UniProt Q8IVH8) | 78% |
| LIM domain kinase 2 (LIMK2, Homo sapiens, UniProt P53671) | 100% |
| Ribosomal protein S6 kinase alpha-6, N-terminal kinase domain (RPS6KA6, Homo sapiens, UniProt Q9UK32) | 100% |
| MTOR (Homo sapiens, UniProt P42345) | 100% |
| PIM3 (Homo sapiens, UniProt Q86V86) | 100% |
| Ribosomal protein S6 kinase alpha-4, N-terminal kinase domain (RPS6KA4, Homo sapiens, UniProt O75676) | 83% |
| MKNK2 (Homo sapiens, UniProt Q9HBH9) | 100% |
| HIPK4 (Homo sapiens, UniProt Q8NE63) | 100% |
| LCK (Homo sapiens, UniProt P06239) | 100% |
| CDC42BPA (Homo sapiens, UniProt Q5VT25) | 100% |
| STK10 (Homo sapiens, UniProt O94804) | 100% |

Set 4
Target: FOSB, bZIP domain (human)
Technique: DHFR protein complementation
Medium: yeast
Setting: single substitutions, most at no-binding floor
Reference: wild-type JUN-FOS pair
Direction: higher = stronger binding
Starting sequence: JUN, bZIP domain (human); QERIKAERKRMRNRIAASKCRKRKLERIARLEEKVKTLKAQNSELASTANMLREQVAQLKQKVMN; partner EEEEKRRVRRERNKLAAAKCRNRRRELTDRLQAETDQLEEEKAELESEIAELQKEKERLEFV
| Variant | binding fitness |
| --- | --- |
| A40S | -0.112 natural log |
| A57H | -0.0818 natural log |
| V35Y | -0.374 natural log |
| K39D | -0.988 natural log |
| A46H | -0.128 natural log |
| S47Q | -0.0644 natural log |
| K34C | -0.229 natural log |
| K39C | -0.649 natural log |

Repeated from above (set 3):
| target | remaining binding |
| --- | --- |
| MTOR (Homo sapiens, UniProt P42345) | 100% |
| PIM3 (Homo sapiens, UniProt Q86V86) | 100% |
| Ribosomal protein S6 kinase alpha-4, N-terminal kinase domain (RPS6KA4, Homo sapiens, UniProt O75676) | 83% |
| MKNK2 (Homo sapiens, UniProt Q9HBH9) | 100% |
| HIPK4 (Homo sapiens, UniProt Q8NE63) | 100% |
| LCK (Homo sapiens, UniProt P06239) | 100% |
| CDC42BPA (Homo sapiens, UniProt Q5VT25) | 100% |
| STK10 (Homo sapiens, UniProt O94804) | 100% |
